Measured values from different studies.
Numbers after ± are the reported error. Converted amounts (≈) assume the structure as drawn.

`CC1(C)N=C(N)N=C(N)N1c1cccc(OCCCc2ccccc2)c1` gave an MIC90 of 3.1 µM (≈ 1.09 µg/mL) (Mycobacterium tuberculosis; microplate alamar blue; H37Rv; GAST medium, glycerol carbon source).
For `CC(C)CC(NC(=O)C(Cc1ccccc1)NC(=O)c1cnc(C(=O)NC(Cc2ccccc2)C(=O)NC(CC(C)C)B(O)O)cn1)B(O)O` (stereo not shown), the IC50 was 2.9 ± 0.18 nM (proteasome (human); chymotrypsin-like activity, inhibitor, Proteasome-Glo; MM1.S; 24 h).
For `CC(=O)N[C@@H](C)C(=O)N[C@@H](CCCCN)C(=O)N[C@@H](Cc1ccccc1)C(=O)N[C@@H](CCC(=O)O)C(=O)N[C@@H](CC(=O)O)C(=O)N[C@H](C(=O)N[C@@H](Cc1ccc(OP(=O)(O)O)cc1)C(=O)N[C@@H](C)C(=O)N[C@@H](C)C(N)=O)[C@@H](C)O`, the kcat was 19 ± 2 s⁻¹ (SHP-1 catalytic domain (ΔSH2); phosphatase activity, substrate; pH 7.4).
`O=C(CSc1nccn1C1CCCCC1)Nc1cc(C(F)(F)F)ccc1Cl` gave an EC50 ratio of 6.6 (Plasmodium falciparum; parasite growth; baseline: 3D7 E182D over 3D7 wild type).
With `CC(=O)N[C@@H](C)C(=O)N[C@H](C(=O)N[C@@H](Cc1c[nH]c2ccccc12)C(=O)N[C@@H](CCC(=O)O)C(=O)N[C@@H](Cc1ccccc1)C(=O)N[C@@H](Cc1ccc(OP(=O)(O)O)cc1)C(=O)N[C@@H](Cc1ccc(OP(=O)(O)O)cc1)C(=O)N[C@@H](C)C(=O)N[C@@H](C)C(N)=O)C(C)C` the kcat was 24 ± 2 s⁻¹ (SHP-1 catalytic domain (ΔSH2); phosphatase activity, substrate; pH 7.4).
With `Cc1nc2c(C(=O)N(C)Cc3ccccc3)c[nH]n2c(=O)c1Cc1ccc(Cl)cc1` the inhibition was 85% (dengue virus 2; viral replication, single-cycle viral yield; New Guinea C; 10 µM).
For `CCOC(=O)c1c(-c2ccc(Cl)cc2Cl)n(-c2nc(-c3ccc(Cl)cc3)c3c(NC(=O)c4ccccc4)nnc-3[nH]2)[nH]c1=O`, the cell growth was 5.63% (HL-60(TB); 10 µM).
`O=C(Nc1cccc(C2=NCCN2)c1)c1ccc(-c2ccc(C(=O)Nc3cccc(C4=NCCN4)c3)cc2)cc1` — result for “nuclear DNA replication”: “no effect” (Leishmania donovani; EdU labelling; concentration not given).
For `COC(=O)c1cc(Cl)ccc1NC(=O)CSc1ncc(S(=O)(=O)c2ccc(Br)cc2)c(=O)[nH]1`, the inhibition was > 90% (dengue virus 2; viral replication, single-cycle viral yield; New Guinea C; 10 µM).
`Fc1ccc2[nH]cc(CNCC3(N4CCCC4)COC3)c2c1` gave a viability of 100% (HEK; single-dose screen; 30 µM, 48 h, off-target toxicity; baseline: DMSO control).
With `Cc1nn(-c2ccc(Cl)cc2)c2c1C(c1cccc(Cl)c1Cl)C(C#N)=C(N)O2` (stereo not shown) the viability was 89.4% (Vero E6; 0.4 µM).
`CC(C)C1CCC(N2CCC3(CC2)C(=O)N(CCNS(N)(=O)=O)Cc2ccccc23)CC1` (stereo not shown) gave an ED50 of 0.01 mg/kg (antinociception, warm water tail withdrawal; rhesus monkey; subcutaneous, 50 °C, cumulative dosing).
With `COc1ccc(S(=O)(=O)N(CC(C)C)C[C@@H](O)[C@H](Cc2ccccc2)NC(=O)O[C@@H]2C[C@@H]3CO[C@@H]4O[C@H]2C[C@H]34)cc1` the IC50 was 38 nM (HIV-1; viral replication; MT-2, LAI).
With `Cc1cc(Nc2ccc(S(F)(F)(F)(F)F)cc2)n2nc(C(C)(F)F)nc2n1` the EC50 was 3.7 nM (Plasmodium falciparum; parasite growth, SYBR Green; Ugandan patient field isolates, human, Albumax-based medium; 72 h).
With `CC/C=C\C/C=C\CCC/C=C/C=C/C=C\CCCC(=O)O` the LD50 was 37.5 µM (NALM-6 (p53 wild type); cell growth, MTT; 24 h).
For `Cc1nn(-c2ccc(Cl)cc2)c2c1C(c1ccc(O)cc1)C(C#N)=C(N)O2` (stereo not shown), the viability was 45.8% (Vero E6; MTT; 100 µM).

Excerpt of the above:
With `Cc1nn(-c2ccc(Cl)cc2)c2c1C(c1cccc(Cl)c1Cl)C(C#N)=C(N)O2` (stereo not shown) the viability was 89.4% (Vero E6; 0.4 µM).
